{"data": "Assay results pooled from the literature", "note": "Every numbered part comes from another study and shows a few of its results, in no order."}
{"data": "Sample 1", "target": "Fragile X messenger ribonucleoprotein 1, C-terminal low-complexity region (Fmr1, Mus musculus, UniProt P35922)", "method": "RNA Bind-n-Seq", "form": "RNA", "sample": "in vitro", "tested at": "200 nM", "notes": "whole 134-nt RNA, ends assumed", "with": "150 mM LiCl", "baseline": "input library", "direction": "higher = stronger binding", "library": "7-deaza-guanosine replaces G"}
{"Oligonucleotide": "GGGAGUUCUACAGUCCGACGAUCUCCUGUGCUACACAUCGUAUGUACCGAAUCGGGGUUUUUGGGUUUUUGGGGUUUUUGGGAAAGUAUUAUGUUACGCCGUUCGGAUCUGCAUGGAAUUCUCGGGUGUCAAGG", "log2 enrichment": 0.348}
{"Oligonucleotide": "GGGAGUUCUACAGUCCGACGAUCAAGUCCUGUGCUACACAUCGUAUGUACCGAAUCGGGGAAAAGGAAAAGGGAAAAGGAAAGUAUUAUGUUACGCCGUUCGGAUCUGCACUUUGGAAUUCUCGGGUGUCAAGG", "log2 enrichment": -0.908}
{"Oligonucleotide": "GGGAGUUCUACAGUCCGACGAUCAGUCCUGUGCUACACAUCGUAUGUACCGAAUCGGGGUUUUUGGUUUUUGGUUUUUGGGAAAGUAUUAUGUUACGCCGUUCGGAUCUGCACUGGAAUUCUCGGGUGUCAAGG", "log2 enrichment": -1.86}
{"Oligonucleotide": "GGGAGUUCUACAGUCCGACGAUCUGGGAGGUGGAUUUUGUUUAUUUUUUUAGCUCAUUUCCAGGGGUGGGAAUUUUUUUCUAAUAUGUGUCAUGAAUAAAGUUGUUUUUGAAAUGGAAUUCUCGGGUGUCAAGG", "log2 enrichment": -0.361}
{"Oligonucleotide": "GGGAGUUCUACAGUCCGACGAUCACCAUGCAGGUGGGCAUCUUUGGGAAGUGGGGCAAGGGGGGGAUAAGGAGGGGGGUAACACUUUGGGAACAGGUGGUCCCAGGUCGUUUCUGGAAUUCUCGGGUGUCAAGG", "log2 enrichment": 1.3}
{"Oligonucleotide": "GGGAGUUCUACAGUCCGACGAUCUUCCUCAAGUCCUGUGCUACACAUCGUAUGUACCGAAUCGGCGGCGGGCGGAAAGUAUUAUGUUACGCCGUUCGGAUCUGCACUUCCAGCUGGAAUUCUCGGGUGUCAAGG", "log2 enrichment": 0.922}
{"Oligonucleotide": "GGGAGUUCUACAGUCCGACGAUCAAGUCCUGUGCUACACAUCGUAUGUACCGAAUCGGGGUUUGGGGUUUGGGGAGGGGAAAGUAUUAUGUUACGCCGUUCGGAUCUGCACUUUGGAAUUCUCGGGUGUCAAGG", "log2 enrichment": -0.614}
{"Oligonucleotide": "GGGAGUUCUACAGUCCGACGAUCUCCUCAAGUCCUGUGCUACACAUCGUAUGUACCGAAUCGGAGGUUUGGAGGAAAGUAUUAUGUUACGCCGUUCGGAUCUGCACUUCCAGCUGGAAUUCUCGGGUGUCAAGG", "log2 enrichment": -1.63}
{"Oligonucleotide": "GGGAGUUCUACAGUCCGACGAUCUCAAGUCCUGUGCUACACAUCGUAUGUACCGAAUCGGGUUGGUUGGGGUUGGGGAAAGUAUUAUGUUACGCCGUUCGGAUCUGCACUUCCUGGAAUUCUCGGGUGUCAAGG", "log2 enrichment": -1.3}
{"Oligonucleotide": "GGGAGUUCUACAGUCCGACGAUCAGUCCUGUGCUACACAUCGUAUGUACCGAAUCGGGAAAGGGUUUUUGGGAAAAAGGGAAAGUAUUAUGUUACGCCGUUCGGAUCUGCACUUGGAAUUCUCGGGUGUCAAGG", "log2 enrichment": -1.77}
{"Oligonucleotide": "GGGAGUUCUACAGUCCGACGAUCGUCCUGUGCUACACAUCGUAUGUACCGAAUCGGCCCCCCGGGCCCCCCGGCCCCCCGGAAAGUAUUAUGUUACGCCGUUCGGAUCUGCACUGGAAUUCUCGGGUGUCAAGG", "log2 enrichment": 1.35}
{"data": "Sample 2", "target": "RING finger protein unkempt homolog, zinc fingers 1-6, GST-SBP tag (UNK, Homo sapiens, UniProt Q9C0B0, residues 30-357)", "method": "RNA Bind-n-Seq", "form": "RNA", "sample": "in vitro", "tested at": "not given", "notes": "RNA with constant flanks, human and mouse sites, ends assumed", "baseline": "input RNA pool", "direction": "higher = stronger binding", "Target sequence (chain)": "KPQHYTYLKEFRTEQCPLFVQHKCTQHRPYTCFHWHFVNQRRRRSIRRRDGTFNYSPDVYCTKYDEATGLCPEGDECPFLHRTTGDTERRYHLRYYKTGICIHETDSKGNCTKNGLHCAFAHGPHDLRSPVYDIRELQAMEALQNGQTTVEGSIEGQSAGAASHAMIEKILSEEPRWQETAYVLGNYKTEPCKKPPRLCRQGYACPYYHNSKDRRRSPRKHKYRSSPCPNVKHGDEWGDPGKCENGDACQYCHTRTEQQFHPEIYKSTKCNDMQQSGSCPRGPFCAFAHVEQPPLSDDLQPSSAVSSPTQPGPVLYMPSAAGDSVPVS"}
{"Oligonucleotide": "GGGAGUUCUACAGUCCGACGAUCAAUGGUGAAUCAGGAAAGGAUGUGGAUGAUGACAAAGAUGCAAAUAAGUCUGAGAUCAGCUUAGUGUUUGAAAUUGCUCUGAAGCGAAAUAUGCCUGUCAGUUUUGAGGUUAUUAAAGAACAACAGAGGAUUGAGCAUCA", "bound/input enrichment [ratio]": 0.35}
{"Oligonucleotide": "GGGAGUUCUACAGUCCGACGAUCGGGUAUGAUUUGGGUGUGGAGACCUCUCAGGUUGGGACUUCUUGUCAGCUUGGACCCCUGACCAGUGGGCUUUGGCUUCUCCAGCCGCCUCCAGUGCUGCGUGAUUUGAUUCUGUUGUACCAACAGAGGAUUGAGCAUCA", "bound/input enrichment [ratio]": 0.146}
{"Oligonucleotide": "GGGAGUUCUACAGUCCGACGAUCACAAUGACUUCUCUAUUACAAAGAUAAGAAACGGUCCCACAAAUAAAAAAAUAAUAAUAAAUGGCUAUUUUUGAAAUUCAAAUAUUUAAAUUUUGUAAAUCAACUGUUUAGGACGUCGUGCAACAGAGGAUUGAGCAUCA", "bound/input enrichment [ratio]": 3.17}
{"Oligonucleotide": "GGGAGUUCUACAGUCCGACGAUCGGAUUUGGAGAUGCAGUGGAUAAUAGUAAUUGCUGGCAGCCUGUUAUCGACUACAUUGAUAGUAAAUUUGAGGACUACCUAAAUGCAGAAUCACGAGUGAACAGACGUCAGAUGCCUGAUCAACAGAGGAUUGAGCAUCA", "bound/input enrichment [ratio]": 0.412}
{"Oligonucleotide": "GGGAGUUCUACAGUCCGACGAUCCACUCAAUCCUCCUCCUACUGAACCGGUUUCAUGUGGACAGGAGGAGCAAAUACGACAUCCUCAUGGAGAAGCUUUCGGUCAUGCUGAGCACACGGACUAACCACAUAGAGACGCUGGGACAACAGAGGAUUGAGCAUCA", "bound/input enrichment [ratio]": 0.333}
{"Oligonucleotide": "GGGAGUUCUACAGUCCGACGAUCCAGCGCCGAGGCCGCGGUUUCCCCCUGGGCCUCCCCAGCAGCAGCCAUGGGCAUCAAAUUUUUAGAAGUUAUCAAACCAUUCUGUGCAGUUCUACCAGAAAUUCAGAAACCGGAAAGGAACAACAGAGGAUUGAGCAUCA", "bound/input enrichment [ratio]": 1.59}
{"Oligonucleotide": "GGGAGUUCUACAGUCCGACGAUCCGGAAGCACAUAGAGGAUGAAAAGCUCGUCCGCUACUUCUUGGACAAGACGCUGACUUCGAGGCUUGGAAUCCGCAUGUUGGCCACGCAUCACCUGGCGCUGCAUGAGGACAAGCCUGACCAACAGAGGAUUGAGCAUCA", "bound/input enrichment [ratio]": 0.0482}
{"Oligonucleotide": "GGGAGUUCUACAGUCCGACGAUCAAGCUAAAGAAGGUUGUGAGGCUUGCCCGGGUUCGAGAUCAUUAUAUCUUCUCUGUUGAGUCAACGGGGGUGUUGCCACCAGAUGUGCUGGUGAGUGAAGCCAUCAAAGUACUGAUGGGGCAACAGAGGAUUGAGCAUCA", "bound/input enrichment [ratio]": 0.176}
{"Oligonucleotide": "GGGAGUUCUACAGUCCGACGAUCGAGAGAGAUGGUGCUGUCAAGGCUAUGGAAGAAAUGAAUGGUAAAGACUUGGAGGGAGAAAAUAUUGAAAUUGUUUUUGCUAAGCCACCAGAUCAGAAGAGGAAAGAAAGAAAAGCUCAGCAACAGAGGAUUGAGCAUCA", "bound/input enrichment [ratio]": 0.266}
{"Oligonucleotide": "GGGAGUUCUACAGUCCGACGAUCCCGUUUCUAGUAUAUUCCUGUAAAUGUCAGUUACUGAAAAUGAGUCCAUUGUAAGUAGUUUAGCUUGUUUUUUGCAAUGCCGGCCUCAACACCACAGAGUAAAAAAAAAAAAAAAACGGUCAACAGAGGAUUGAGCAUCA", "bound/input enrichment [ratio]": 3.23}
{"Oligonucleotide": "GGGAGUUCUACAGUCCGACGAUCAGAAAGCAAAACUUGGAACGAUUUAAGAAAGGAGACGUAAGAUUCUUGAUUUGCACAGAUGUAGCUGCUAGAGGGAUUGAUAUCCAUGGCGUUCCUUAUGUGAUCAACGUCACCCUGCCUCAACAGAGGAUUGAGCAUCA", "bound/input enrichment [ratio]": 0.208}
{"data": "Sample 3", "target": "Interferon regulatory factor 7, full length, phosphomimetic (IRF7, Homo sapiens, UniProt Q92985, residues 1-503, S471D/S472D/S475D/S476D/S477D/S483D/S484D/S487D)", "method": "protein-binding microarray", "form": "double-stranded DNA, one strand shown", "sample": "in vitro", "tested at": "2200 nM top", "notes": "60-bp whole probe", "with": "salmon DNA 0.4 mg/ml", "baseline": "random background probes", "direction": "higher = stronger binding", "all sequences stand within": "GCCTAGCAC … GTCTTGATTCGCTTGACGCTGCTG", "Target sequence (chain)": "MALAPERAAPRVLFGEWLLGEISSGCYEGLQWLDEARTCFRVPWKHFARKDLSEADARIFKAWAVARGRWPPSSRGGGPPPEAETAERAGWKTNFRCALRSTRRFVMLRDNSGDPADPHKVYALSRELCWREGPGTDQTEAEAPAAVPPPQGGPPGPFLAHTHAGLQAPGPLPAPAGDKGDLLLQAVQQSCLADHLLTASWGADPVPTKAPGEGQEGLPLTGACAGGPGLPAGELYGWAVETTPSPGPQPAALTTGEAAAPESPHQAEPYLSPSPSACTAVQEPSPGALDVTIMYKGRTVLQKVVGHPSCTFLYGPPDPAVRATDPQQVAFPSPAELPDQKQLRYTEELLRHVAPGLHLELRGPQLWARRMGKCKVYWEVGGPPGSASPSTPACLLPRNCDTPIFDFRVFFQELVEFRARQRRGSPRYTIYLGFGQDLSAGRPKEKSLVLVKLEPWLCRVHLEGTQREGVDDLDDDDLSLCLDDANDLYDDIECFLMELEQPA"}
{"Oligonucleotide": "GACGAAATGGGGTATCGAGACGTGCTA", "fitted relative affinity [z-score]": 0.358}
{"Oligonucleotide": "GACGGTATCGGGACTGGAGACGTGCTA", "fitted relative affinity [z-score]": -0.437}
{"Oligonucleotide": "TTCAGTCCCCTCTTCTGGATGTGCTAG", "fitted relative affinity [z-score]": 1.18}
{"Oligonucleotide": "TTAGCTTTCAGTCTCGATTAGTGCTAG", "fitted relative affinity [z-score]": 1.96}
{"Oligonucleotide": "AAATTCTATTCTCTCAATTTGTGCTAG", "fitted relative affinity [z-score]": 1.32}
{"Oligonucleotide": "TCAAGAGTAGCTTTCTGACTGTGCTAG", "fitted relative affinity [z-score]": 0.171}
{"Oligonucleotide": "GACGGTATCGGGTTTAGGGACGTGCTA", "fitted relative affinity [z-score]": -0.0246}
{"Oligonucleotide": "GACGAACTGCGTATCGAGACGTGCTAG", "fitted relative affinity [z-score]": 0.0352}
{"Oligonucleotide": "TTAGATATCAGAATGGATTAGTGCTAG", "fitted relative affinity [z-score]": -0.544}
{"Oligonucleotide": "GACGATTTCCTACTGCTGACGTGCTAG", "fitted relative affinity [z-score]": 1.7}
{"Oligonucleotide": "TTAGGTATCGGGAATGGGTTAGTGCTA", "fitted relative affinity [z-score]": -0.238}
{"Oligonucleotide": "GACGGTTTCGACTATCGGGCCGTGCTA", "fitted relative affinity [z-score]": 3.32}
{"Oligonucleotide": "GAAGTTCTTTTTTTCAAGAAGTGCTAG", "fitted relative affinity [z-score]": -0.345}
{"Oligonucleotide": "TTGCTGAAATAATACTGTTAGTGCTAG", "fitted relative affinity [z-score]": -0.287}
{"data": "Mixed results"}
{"Substance": "PhoQ, residues 284 288 289 292 302 303 SSCCRF", "target": "PhoP, residues 12 14 15 18 19 LHATL (Escherichia coli, UniProt P23836)", "assay": "Sort-seq, refers to: YFP reporter", "test system": "E. coli", "setting": "PhoQ-PhoP variant library, with: 10 µM Mg2+", "scale": "baseline: high Mg2+ state, higher = stronger signaling", "endpoint": "fold induction", "result": 2.65}
{"note": "For quick reference, copied from above (sample 2):"}
{"Oligonucleotide": "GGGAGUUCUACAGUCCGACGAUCGGGUAUGAUUUGGGUGUGGAGACCUCUCAGGUUGGGACUUCUUGUCAGCUUGGACCCCUGACCAGUGGGCUUUGGCUUCUCCAGCCGCCUCCAGUGCUGCGUGAUUUGAUUCUGUUGUACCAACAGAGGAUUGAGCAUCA", "bound/input enrichment [ratio]": 0.146}
{"Oligonucleotide": "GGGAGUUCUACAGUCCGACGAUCACAAUGACUUCUCUAUUACAAAGAUAAGAAACGGUCCCACAAAUAAAAAAAUAAUAAUAAAUGGCUAUUUUUGAAAUUCAAAUAUUUAAAUUUUGUAAAUCAACUGUUUAGGACGUCGUGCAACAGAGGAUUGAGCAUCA", "bound/input enrichment [ratio]": 3.17}
{"Oligonucleotide": "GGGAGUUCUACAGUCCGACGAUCGGAUUUGGAGAUGCAGUGGAUAAUAGUAAUUGCUGGCAGCCUGUUAUCGACUACAUUGAUAGUAAAUUUGAGGACUACCUAAAUGCAGAAUCACGAGUGAACAGACGUCAGAUGCCUGAUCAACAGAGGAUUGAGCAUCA", "bound/input enrichment [ratio]": 0.412}
